Measured values from different studies.
Several values in a cell are separate wells, animals, samples, runs or records. ± gives the spread as reported.

Structure (SMILES)	tested on	assay	test system	setting	how to read	measurement	result
C=CCN1C(=O)C(CC=C)(C(=O)OCC)Oc2cc(F)ccc21 (stereo not shown)	L02	cell growth or viability, CCK-8		1.56 µM, 72 h		inhibition	0.22%
CC(C)CC(O)(CC(C)C)c1cn(C(=O)N2CCCC2)nn1	mouse T-cells	SILAC proteomics, measured: Fbxo7		1 nM, 6 h, single peptides, unit not given	reference: DMSO	protein level	1.06 and 1.13
CC(C)C12OC1C1OC13C1(C)CCC4=C(COC4=O)C1CC1OC13C2OC(=O)CCC(=O)OC1OC(CO)C(O)C(O)C1O (stereo not shown)	SK-HEP1	cell growth or viability, XTT		47 h		IC50	3.38 µM
CC1CCC2C(C)C(OC(=O)CCC(=O)N3CCC(Nc4ccc(S(=O)(=O)NC(=O)c5ccc(N6CCN(CC7=C(c8ccc(Cl)cc8)CC(C)(C)CC7)CC6)cc5Oc5cnc6[nH]ccc6c5)cc4[N+](=O)[O-])CC3)OC3OC4(C)CCC1C32OO4 (stereo not shown)	THP-1	annexin V/PI flow cytometry, measured: annexin V-/PI-		0.2 µM, 24 h		viable cells	83.1%
CC[C@H](C)[C@H](NC(=O)CNC(=O)[C@H](Cc1ccc(O)cc1)NC(=O)[C@H](CO)NC(=O)[C@H](Cc1ccc(O)cc1)NC(=O)[C@@H](NC(=O)[C@H](CC(=O)O)NC(=O)[C@H](CO)NC(=O)[C@H](CCC(N)=O)NC(=O)[C@H](Cc1ccccc1)NC(=O)[C@H](CO)NC(=O)[C@H](Cc1ccccc1)NC(=O)[C@@H]1CCCN1C(=O)[C@H](CC(N)=O)NC(=O)[C@H](CC(N)=O)NC(=O)[C@H](CC(=O)O)NC(=O)[C@H](CCC(N)=O)NC(=O)[C@@H]1CCCN1C(=O)[C@H](CCCNC(=N)N)NC(=O)[C@H](CCCNC(=N)N)NC(=O)[C@H](CCCNC(=N)N)NC(=O)[C@H](CCC(N)=O)NC(=O)[C@H](CCCNC(=N)N)NC(=O)[C@H](CCCNC(=N)N)NC(=O)[C@H](CCCCN)NC(=O)[C@H](CCCCN)NC(=O)[C@H](CCCNC(=N)N)NC(=O)CN)C(C)C)C(=O)N[C@H](C(=O)N[C@@H](CC(C)C)C(N)=O)C(C)C	MCF7	immunoblot densitometry, measured: phospho-MEK1/2 Ser217/221		20 µM, 48 h, unit not given	reference: 0 µM	phospho-MEK1/2 level	0.487 and 0.313
O=C(O)c1ccc(-c2nc(-c3ccccc3Cl)c3sccn23)cc1	K562	erythroid differentiation, flow cytometry		0.1 mM, 24 h		CD235a-positive cells	96.1% and 92% and 92.9%
COc1ccc(NC(=O)c2ccc3[nH]c(-c4ccc(N(C)C)cc4)nc3c2)cn1	HCT116	IncuCyte		concentration not given, 48 (unit not given)		PI-positive cells	296 count and 233 count and 206 count
Cc1cc(Oc2nc(N3CC[C@@H](c4ccncc4)C3)ncc2F)[nH]n1	J82	cell proliferation	bladder cancer			IC50	95.5 µM
NC(=S)N/N=C/c1ccc(OCc2cccc(F)c2)cc1	IMR-32	measured: GPX3		100 µg/mL, 24 h	higher = more activity	glutathione peroxidase activity (OD450)	0.126 a.u.
CC(C)Cc1ccc(C(C)C(=O)[O-])cc1.CC(C)Cc1ccc(C(C)C(=O)[O-])cc1.[Cu+2].c1ccncc1.c1ccncc1 (stereo not shown)	MRC5	cell growth or viability, MTT		48 h		GI50	7.5 µM
CC[C@H](C)[C@H](NC(=O)[C@H](C)NC(=O)CNC(=O)[C@H](Cc1ccccc1)NC(=O)[C@H](CC(N)=O)NC(=O)[C@H](CC(N)=O)NC(=O)[C@H](CO)NC(=O)[C@H](CO)NC(=O)[C@H](Cc1c[nH]cn1)NC(=O)[C@@H](NC(=O)[C@H](CC(C)C)NC(=O)[C@H](Cc1ccccc1)NC(=O)[C@H](CC(N)=O)NC(=O)[C@H](C)NC(=O)[C@H](CC(C)C)NC(=O)[C@H](CCCNC(=N)N)NC(=O)[C@H](CCC(N)=O)NC(=O)[C@@H](NC(=O)[C@H](C)NC(=O)[C@@H]1CSSC[C@H](NC(=O)[C@@H](N)CCCCN)C(=O)N[C@@H](CC(N)=O)C(=O)N[C@@H]([C@@H](C)O)C(=O)N[C@@H](C)C(=O)N[C@@H]([C@@H](C)O)C(=O)N1)[C@@H](C)O)C(C)C)C(=O)N[C@@H](CC(C)C)C(=O)N[C@@H](CO)C(=O)N[C@@H](CO)C(=O)N[C@H](C(=O)N[C@@H](CC(N)=O)C(=O)N[C@H](C(=O)NCC(=O)N[C@@H](CO)C(=O)N[C@@H](CC(N)=O)C(=O)N[C@H](C(=O)N[C@@H](Cc1ccc(O)cc1)C(N)=O)[C@@H](C)O)C(C)C)[C@@H](C)O	INS-1 832/13	cell viability, CellTiter-Glo		24 h		EC50	60 µM
CC(C)(C)C(=O)OCOP(=O)(OCOC(=O)C(C)(C)C)C1CCCN(O)C1=O (stereo not shown)	NCI-60 cell line panel					Log10TGI mean	-4.97 log M
CC(C)C[C@H](NC(=O)[C@H](CC(=O)O)NC(=O)CNC(=O)[C@@H](N)CCCNC(=N)N)C(=O)N[C@@H](C)C(=O)N[C@H](C(=O)N[C@@H](CC(C)C)C(=O)N[C@@H](CCCNC(=N)N)C(=O)N[C@@H](CCC(N)=O)C(=O)N[C@@H](CC(C)C)C(=O)N[C@@H](C)C(=O)N[C@@H](CCC(N)=O)C(=O)N[C@@H](CCC(=O)O)C(=O)N[C@@H](CC(=O)O)C(=O)NCC(=O)N[C@H](C(=O)N[C@H](C(=O)NCC(=O)N[C@H](C(=O)N[C@@H](CCCNC(=N)N)C(=O)NCCOCCOCCOCCOCCOCCOCCOCCOCCOCCOCCOCCOCCC(=O)N[C@@H](CS)C(N)=O)C(C)C)C(C)C)C(C)C)[C@@H](C)O	H1993	phage binding		10 min, 37 °C	reference: control phage	selectivity ratio	37 ± 7.9
O=C1NC2(CC2)COc2ncc(F)cc2[C@H]2COCCN2c2ccn3ncc1c3n2			Sprague-Dawley rat, female, spleen	oral, 10 mg/kg/day, 4 weeks dosing, end of recovery		organ-to-brain weight ratio	41.1 ± 4.97%
C[C@@H]1O[C@H]2O[C@@H]3C4(O)C(=O)c5cccc(O)c5C(=O)C4(O)O[C@]3(C)[C@]21O (stereo partly shown)	HeLa and Vero	MTT			reference: CC50 Vero over EC50 HeLa	selectivity index	0.88
CCOC(=O)C1(Cc2ccccc2)Oc2cc(F)ccc2N(Cc2ccccc2)C1=O (stereo not shown)	HaCaT	cell growth or viability, CCK-8		25 µM, 72 h		inhibition	0.25%
COc1ccccc1-c1ccncc1C(=O)Nc1nnc(OCc2ccc(Cl)cc2)s1	RPE-1 BRCA1 WT parental			0.125 µM, average of 2 runs	reference: untreated	colony survival	92%
CCC1=NC2CC3(C(=O)N(OC)c4ccccc43)C3OCC2C1C3O (stereo not shown)	Vero	CCK-8		up to 100 µM, 24 h		viability	no effect
O=C(C[Se]C(=O)c1ccccc1)Nc1cccc(C(F)(F)F)c1	NCI60 CNS cancer panel	five-dose screen				GI50	2.07 µM
CC(C)[C@H](NC(=O)[C@H](CCCNC(=N)N)NC(=O)[C@@H]1CCCN1C(=O)[C@@H](NC(=O)[C@H](C)NC(=O)[C@H](Cc1ccc(O)cc1)NC(=O)[C@H](CCC(N)=O)NC(=O)[C@H](CCCCN)NC(=O)[C@H](CCCNC(=N)N)NC(=O)[C@@H]1CCCN1C(=O)[C@H](CCC(=O)O)NC(=O)[C@@H](NC(=O)[C@H](C)N)[C@@H](C)O)[C@@H](C)O)C(=O)N[C@@H](Cc1ccccc1)C(=O)N[C@@H](Cc1c[nH]c2ccccc12)C(=O)N[C@H](C(=O)N[C@@H](CC(=O)O)C(=O)N[C@@H](C)C(=O)N1CCC[C@H]1C(=O)NCC(=O)NCCOCCOCCOCCOCCOCCOCCOCCOCCOCCOCCOCCOCCC(=O)N[C@@H](CS)C(N)=O)[C@@H](C)O	H441	phage binding		10 min, 37 °C	reference: control phage	selectivity ratio	1.7 ± 1.4
CC(C)C12OC1C1OC13C1(C)CCC4=C(COC4=O)C1CC1OC13C2OC(=O)CCCOC1OC(CO)C(O)C(O)C1O (stereo not shown)	human Fibroblast	cell growth or viability, XTT		47 h		IC50	10.6 µM
CSCC[C@H](NC(=O)[C@@H](NC(=O)[C@H](CCC(N)=O)NC(=O)[C@H](CO)NC(=O)[C@@H](N)C(C)C)[C@@H](C)O)C(=O)N[C@@H](CCCNC(=N)N)C(=O)N[C@@H](CCC(N)=O)C(=O)N[C@H](C(=O)N[C@@H](C)C(=O)N[C@H](C(=O)N1CCC[C@H]1C(=O)N[C@@H](CC(C)C)C(=O)N[C@@H](CC(C)C)C(=O)N[C@@H](Cc1c[nH]c2ccccc12)C(=O)N[C@@H](Cc1ccccc1)C(=O)N[C@@H](Cc1c[nH]c2ccccc12)C(=O)N[C@H](C(=O)NCC(=O)N[C@@H](CO)C(=O)N[C@@H](CC(C)C)C(=O)NCCOCCOCCOCCOCCOCCOCCOCCOCCOCCOCCOCCOCCC(=O)N[C@@H](CS)C(N)=O)[C@@H](C)O)C(C)C)[C@@H](C)O	H441	phage binding		10 min, 37 °C	reference: control phage	selectivity ratio	2.4 ± 0.94
NC(=S)N/N=C/c1ccc(OCc2ccccc2)cc1	IMR-32	measured: GPX3		100 µg/mL, 24 h	higher = more activity	glutathione peroxidase activity (OD450)	0.053 a.u.
C#CCN1C(=O)C(CC#C)(C(=O)OCC)Oc2ccccc21 (stereo not shown)	L02	cell growth or viability, CCK-8		0.78 µM, 72 h		inhibition	0%
CC(=O)NCSC[C@H](NC(=O)[C@@H]1CCCN1C(=O)[C@H](C)NC(=O)[C@@H](NC(=O)CNC(=O)[C@@H](NC(=O)[C@H](Cc1c[nH]c2ccccc12)NC(=O)[C@H](C)NC(=O)CNC(=O)[C@H](CO)NC(=O)[C@H](C)NC(=O)[C@@H]1CCCN1C(=O)[C@H](Cc1c[nH]c2ccccc12)NC(=O)[C@H](C)NC(=O)[C@H](C)NC(=O)[C@@H](N)Cc1ccc(O)cc1)[C@@H](C)O)[C@@H](C)O)C(=O)N[C@@H](CO)C(=O)N[C@@H](C)C(=O)NCC(=O)N[C@H](C(=O)NCCOCCOCCOCCOCCOCCOCCOCCOCCOCCOCCOCCOCCC(=O)N[C@@H](CS)C(N)=O)[C@@H](C)O	HCC366 lung adenosquamous carcinoma	cell binding, phage binding, measured: output/input phage		10 min, 37 °C	reference: control phage	selectivity ratio	19 ± 12

Excerpt of the above:
Structure (SMILES)	tested on	assay	test system	setting	how to read	measurement	result
C[C@@H]1O[C@H]2O[C@@H]3C4(O)C(=O)c5cccc(O)c5C(=O)C4(O)O[C@]3(C)[C@]21O (stereo partly shown)	HeLa and Vero	MTT			reference: CC50 Vero over EC50 HeLa	selectivity index	0.88
COc1ccccc1-c1ccncc1C(=O)Nc1nnc(OCc2ccc(Cl)cc2)s1	RPE-1 BRCA1 WT parental			0.125 µM, average of 2 runs	reference: untreated	colony survival	92%
